Measurements gathered from unrelated publications.
Each line is one published result; not all experiments were run side by side. Values joined by “and” are separate records of one study, mostly repeats; a detail may differ. ± gives the spread as reported. Converted amounts (≈) assume the structure as drawn.

CCN1/C(=C/C(C)=O)Sc2ccc(F)cc21
PR interval (cynomolgus monkey; oral, 30 mg/kg, 0.5 h post-dose): 90 ± 3 ms

CCO[C@H]1CCN(Cc2c(OC)cc(C)c3[nH]ccc23)[C@H](c2ccc(C(=O)O)cc2)C1
unbound AUClast (human moderate hepatic impairment, plasma; oral, 200 mg single dose, mean): 5980 ng·h/mL

O=C(O)c1cc(O)c(O)c(O)c1
MRT (rat, plasma; oral, 500 mg/kg extract, extract): 5.89 ± 0.21 h

N#C[C@@]1(c2ccc3c(N)ncnn23)O[C@H](CO)[C@@H](O)[C@H]1O
recovery (plasma protein binding; monkey plasma; 10 µM, time not given): 93.6%

CCCCOc1ccc([C@H]2CC[C@H](CCC)CC2)c(F)c1F
median placental accumulation (rat, placenta; 1000 ng/mL in perfusate, middle dose, mixture of 21 LCMs): 10.6 ng/g

Cc1ccc(Sc2ccccc2N2CCNCC2)c(C)c1
participants with TEAE (refers to: hot flush; healthy adult men; oral, 20 mg daily, 12 days): 0%

COc1ccnc(C(=O)N[C@@H](CO)C(=O)O[C@@H](C)[C@H](O)[C@@H](Cc2ccccc2)C(=O)O)c1O
storage stability (bovine fat; -18 °C): 3 months

N[C@@H]1c2ccccc2OC12CCN(c1cnc3c(N4CCCc5ncccc54)n[nH]c3n1)CC2
AUC(0-tau) (advanced metastatic solid tumour patients, plasma; oral, 60 mg once daily, cycle 1 day 1, geometric mean): 4410 ng·h/mL

O=C(OC(C(F)(F)F)C(F)(F)F)N1CCN(Cc2cccc(Oc3ccccc3)c2)CC1
k2 (PET blocking study; rhesus monkey, brain HIP; 0.1 mg/kg, compound pretreatment, added: [18F]T-401 tracer): 23.2 min⁻¹

Cn1cc([C@H]2C[C@H]3CSC(N)=N[C@@]3(c3ccc(F)cc3F)CO2)cn1
plasma concentration (male 129/SVE mouse, plasma; subcutaneous, 10 mg/kg, 6 h): 0.223 µM

C=CCN1CC(=O)N2[C@@H](Cc3ccc(O)cc3F)C(=O)N(Cc3cccc(N4CC(N5CCN(CC)CC5)C4)n3)C[C@@H]2N1C(=O)NCc1ccccc1
treatment-related nausea (advanced solid tumour patients; oral, 100 mg twice daily, grade ≥3, dose-escalation): 0%

CC(F)(F)c1nc2nc(CO)cc(Nc3ccc(S(F)(F)(F)(F)F)cc3)n2n1
half-life, metabolite (LC-MS/MS; malaria patients, plasma; oral, 800 mg of parent drug): 134 h

c1ccc(-c2nc(NCc3nc4ccccc4o3)c3ccccc3n2)nc1
kinetic solubility (Japanese Pharmacopoeia disintegration test solution 2; pH 6.8): 38 µg/mL

CNc1ccc(-c2nc3ccc(O)cc3s2)cc1 [carbon-11 labelled]
SUV (ex vivo biodistribution; APP/PS1 mouse, AD model, feces; intravenous, 30 min): 0.922 ± 0.819

CCn1cc(C(=O)N2CCOCC2)c(=O)c2cc(NC3Cc4ccccc4C3)cnc21
half-life (human, fasted; oral suspension, 300 mg single dose, arithmetic mean): 4.41 h

COc1cc2[nH]c(C)c(-c3ccc(C(F)(F)F)cc3)c(=O)c2cc1Cl
kinetic solubility (pH 7.4): < 2 µM

CO[C@H]1C[C@@H]2CC[C@@H](C)[C@@](O)(O2)C(=O)C(=O)N2CCCC[C@H]2C(=O)O[C@H]([C@H](C)C[C@@H]2CC[C@@H](O)[C@H](OC)C2)CC(=O)[C@H](C)/C=C(\C)[C@@H](O)[C@@H](OC)C(=O)[C@H](C)C[C@H](C)/C=C/C=C/C=C/1C
heart rate (healthy adult horses; intravenous, 0.06 mg/kg, 8 h): 35.5 ± 3.7 beats/min

O=C(Nc1nc2cccc(-c3ccc(CN4CCS(=O)(=O)CC4)cc3)n2n1)C1CC1
treatment-emergent adverse events (refers to: hypotension; human rheumatoid arthritis patients; oral, 200 mg once daily, 4 weeks, regardless of relatedness): 0%

CCc1cc(C(=O)NC)c2nccc(N3CCc4c(cc(Cn5ccnc5)cc4-c4cn(C)nc4C(F)(F)F)C3=O)c2c1
blood MCHC (Sprague Dawley rats; oral, 100 mg/kg twice daily, 7 days): 306 ± 7.33 g/L

COc1ncc(-c2nc3c(n2C(C)C)[C@H](c2ccc(Cl)cc2)N(c2cc(Cl)cn(C)c2=O)C3=O)c(OC)n1
Cmax (LC-MS/MS; human, plasma; oral, 250 mg, cycle 1 day 1, high-dose arm): 2020 ng/mL

O=C(COc1ccc(Cl)cc1)NC12CC(c3nnc([C@H]4C[C@@H](OC(F)(F)F)C4)o3)(C1)C2
adverse event incidence (refers to: muscle spasms; human; oral, 260 mg once daily, 14 days): 14.3%

O=C(N[C@H](Cc1c[nH]c2ccccc12)C(=O)Nc1ccncc1)c1ccc(-c2ccc(F)c(Cl)c2)cc1F
concentration (Swiss Webster mouse, female, liver; oral, 50 mg/kg, 2 h, 20% HPβCD vehicle): 20.8 µM

COCCOc1cnc2ccn([C@H](C)c3nnc4c(F)cc(-c5cnn(C)c5)cn34)c(=O)c2c1
Ctrough (patients, plasma; oral, 200 mg once daily, day 1 24 h postdose): 420 ng/mL

COc1cccc(-c2n[nH]c(SCc3ccccn3)n2)c1OC
plasma concentration (Sprague-Dawley rats, both sexes; oral dietary, 10 mg/kg/day, day 7, 6 h): 276 ng/mL

O=C(O)CCC(=O)O.[2H]C([2H])([2H])Oc1cc(C)c2[nH]ccc2c1CN1CC[C@@H](C2CC2)C[C@H]1c1ccc(C(=O)O)cc1
subjects with hyponatraemia (multiple ascending dose; healthy Chinese subjects; 125 mg twice daily): 0%

Cn1c(Cc2ccccc2)nnc1Sc1ccc([N+](=O)[O-])cc1C(=O)N1CCOCC1
thermodynamic solubility (aqueous buffer; pH 7.4): 140 µM (≈ 61.6 µg/mL)

CCN1CCN(Cc2ccc(NC(=O)c3ccc(C)c(NC(=O)c4cncc(-c5cccs5)c4)c3)cc2C(F)(F)F)CC1
extrapolated AUC share (C57BL/6 mice, epithelial lining fluid; intraperitoneal, 10 mg/kg): 7.83%

N#Cc1ccc2c(c1)[C@H]1CCCN(C(=O)c3ccc4[nH]cnc4c3)[C@H]1C2
cortisol level change (human; 40 mg, day 7; relative to: baseline): -140 nmol/L

CCc1ccc(-c2ccc(-c3cc(F)c(F)c(F)c3)c(F)c2)cc1
median placental accumulation (rat, placenta; 5000 ng/mL in perfusate, high dose, mixture of 21 LCMs): 229 ng/g

Cc1nc2ncnn2c(O)c1NS(=O)(=O)c1ccc(Br)cc1
thermodynamic solubility (aqueous buffer; pH 7.4): 6270 µM (≈ 2410 µg/mL)

C[C@@H](Nc1cc(F)cc(F)c1)c1cc(C(=O)N(C)C)cc2c(=O)cc(N3CCOCC3)oc12
related serious adverse events (refers to: Nausea; advanced solid tumour patients; oral, dose not given, dose expansion): 0%

CCCOc1ccc(NC(=O)CN2CCN(C)CC2)cc1-c1nc(CC)c(CC)c(=O)[nH]1
AUEC(0-4 h) diastolic BP (healthy Chinese men; 10 mg, supine or semi-supine, added: alcohol 0.5 g/kg): -22.8 ± 18.9 h·mmHg

Cn1cc(Nc2nccc(-c3ccc4c(c3)CN(C3COC3)CC[C@H]4NC(=O)c3cn(C(C)(C)C)nn3)n2)cn1
percent change from baseline (refers to: Granulocytes count; human, clinical trial, whole blood; 150 mg twice daily, follow-up): 37.4%

CN(CCCN1CCN(C(=O)CN2CCN(CC(=O)[O-])CCN(CC(=O)[O-])CCN(CC(=O)[O-])CC2)CC1)c1ccc2nccc(C(=O)NCC(=O)N3CC(F)(F)C[C@H]3C#N)c2c1.[68Ga+3]
uptake (mouse HT-1080-hFAP and HT-1080 xenografts, HT-1080 wild-type tumour; intravenous, 500 pmol, 1 h): 0.6 ± 0.1 %IA/g

C1=C/COCc2cc(ccc2OCCN2CCCC2)Nc2nccc(n2)-c2cccc(c2)COC/1
stability relative error (rat plasma; 2 ng/mL, 1 months, -20 °C, long-term storage; relative to: nominal concentration): -3.39%

C=CC[C@@H]1/C=C(\C)C[C@H](C)C[C@H](OC)[C@H]2O[C@@](O)(C(=O)C(=O)N3CCCC[C@H]3C(=O)O[C@H](/C(C)=C/[C@@H]3CC[C@@H](O)[C@H](OC)C3)[C@H](C)[C@@H](O)CC1=O)[C@H](C)C[C@@H]2OC
plasma HCO3- level (Wistar Kyoto rat, male, plasma; ip, 0.5 mg/kg/day, day 28, at sacrifice): 25.9 ± 1.2 mmol/L

CCn1ncc2c1-c1cnc(N)c(c1)O[C@H](C)c1cc(F)ccc1-c1nn(C)nc1C2
unbound plasma trough concentration (female athymic nude mice, sample B PDX; oral, 0.2 mg/kg twice daily for 5.5 days, 12 h): 0.3 ± 0.02 nM

CN1C(=O)[C@@H](NC(=O)c2nnc(Cc3ccccc3)[nH]2)COc2cccnc21
medical device site reaction incidence (phase I single ascending dose; human, male and female; oral, 800 mg, fasted): 0%

Cc1cc(-c2nccc3c2ccn3CC(=O)Nc2ccc(-c3cnccn3)cn2)ccn1
subjects with contact dermatitis (human; 5 mg once daily, multiple ascending dose): 0%

O=C(O)CSc1nnc(Br)n1-c1ccc(C2CC2)c2ccccc12
body weight (KM mouse, chronic hyperuricaemia model; dose not given, day 3): 27.8 g and 25 g and 23.6 g and 30.2 g and 28.1 g and 26.9 g

NS(=O)(=O)c1ccc(CNc2ccnc(Nc3cccc(NC(=O)N4CCCC4)c3)n2)cc1
PAMPA permeability (PAMPA; PBS; 5 h, pH 7.4): not detected

CN(C(=O)n1cnc(-c2cccnc2)c1)[C@H]1CC[C@H](O)CC1
tissue concentration (rat, cortex; oral, 10 mg/kg single dose, 24 h): 15.1 ± 0.4 ng/g

CNC(=O)c1ccc(-c2cnc3ncc(Cc4ccc5ncccc5c4)n3n2)cc1F
patients with adverse event (refers to: Nausea, all grades; gastric cancer patients; oral, 600 mg twice daily, expansion cohort, any causality): 33%

CCNCCCNC/C=C\CNCCCNCC
AUMC(0-inf) (LC-MS/MS; human cancer patients, plasma; intravenous infusion 60 min, 200 mg, median, cycle 1): 1360 ng·h²/mL

CCOc1c([C@H](C)n2nc(C)c3c(N)ncnc32)cc(Cl)c(F)c1[C@@H]1CNC(=O)C1
share of ECG observations (refers to: ΔQTcF > 60 ms; previously treated B-cell malignancy; oral, dose not given, baseline QTcF ≤450 ms, all doses): 0.6%

Nc1ccn([C@@H]2O[C@H](CO)[C@@H](O)C2(F)F)c(=O)n1
clearance (HPLC-UV; human, plasma; 800 mg/m^2, mean, after paricalcitol): 59.4 L/h/m²

COC(=O)c1ccccc1C1=c2cc3c4c(c2Oc2c1ccc1cccc(O)c21)CCC[N+]=4CCC3.[Cl-]
molar extinction coefficient (12.5 mM aqueous NaOH; pH 12.1, 10% DMSO): 14500 M⁻¹ cm⁻¹

CCCOc1ccc(-c2ccc(C#N)cc2)cc1
median fetal accumulation (Sprague-Dawley rat, female, fetus; 5000 ng/mL in perfusate, 50 (unit not given), high dose, mixture of 21 LCMs): 16.5 ng/g

Cc1cccc(CNC(=O)c2cn(CCNC(=O)c3ccccc3S)c3cc4c(cc3c2=O)OC(F)(F)O4)n1
AUC(0-inf) (Sprague-Dawley rat, male, plasma; intravenous, 5 mg/kg of parent drug): 105 ± 7.56 ng·h/mL

COc1cccc2c1C(=O)c1c(O)c3c(c(O)c1C2=O)C[C@@](O)(C(=O)CO)C[C@@H]3O[C@H]1C[C@H](N)[C@H](O)[C@H](C)O1
C0 (healthy mouse, plasma; intravenous, 13.3 mg/kg, extrapolated to time zero): 25 µM

FC(F)(F)c1ccc(CNc2ccc(Cc3c[nH]c4ncc(Cl)cc34)cn2)cn1
treatment-related adverse events (refers to: mucosal inflammation; human, advanced solid tumours, non-TGCT cohort; oral, 1000 mg/day, any grade): 4%

CCC(C)n1ncn(-c2ccc(N3CCN(c4ccc(OCC5COC(Cn6cncn6)(c6ccc(Cl)cc6Cl)O5)cc4)CC3)cc2)c1=O (stereo not drawn)
trough plasma concentration (human, plasma; oral, dose not given, day 14 predose, mean): 140 ng/mL

CC(C)c1nc(CN(C)C(=O)N[C@@H](CCN2CCOCC2)C(=O)N[C@H](CC[C@H](Cc2ccccc2)NC(=O)OCc2cncs2)Cc2ccccc2)cs1
participants with Headache (human; oral, dose not given): 0%

COc1ccc2c(c1)CN(C(=O)CCN1CCC(Cc3ccccc3)CC1)CC[S@@+]2[O-]
QT interval (telemetry; conscious male beagle dogs; intravenous, 8 mg/kg, 1 h): 209 ± 38 ms

Cc1nc2cccc(OCC(C)(C)C(=O)NC(C)C)c2c(N)c1C(=O)O
micronucleated PCE per 14000 PCE (male Swiss albino CD-1 mouse, bone marrow; oral, 2000 mg/kg, 24 h): 5

Cc1ccc([C@@H]2O[C@H](CO)[C@@H](O)[C@H](O)[C@H]2O)cc1Cc1ccc(-c2ccc(F)cc2)s1
urinary phosphate excretion change (refers to: inorganic phosphorus; Japanese type 2 diabetes patients; 100 mg, day 18, 24 h urine collection; relative to: baseline): -42.6 mg

NC[C@@]1(CC(=O)O)[C@@H]2CC[C@H]3C[C@@H]2[C@@H]1C3
unbound apparent volume of distribution (human, moderate renal impairment, plasma; dose not given, geometric mean): 49.2 L

Repeated from above:
COC(=O)c1ccccc1C1=c2cc3c4c(c2Oc2c1ccc1cccc(O)c21)CCC[N+]=4CCC3.[Cl-]
molar extinction coefficient (12.5 mM aqueous NaOH; pH 12.1, 10% DMSO): 14500 M⁻¹ cm⁻¹

CCCOc1ccc(-c2ccc(C#N)cc2)cc1
median fetal accumulation (Sprague-Dawley rat, female, fetus; 5000 ng/mL in perfusate, 50 (unit not given), high dose, mixture of 21 LCMs): 16.5 ng/g

Cc1cccc(CNC(=O)c2cn(CCNC(=O)c3ccccc3S)c3cc4c(cc3c2=O)OC(F)(F)O4)n1
AUC(0-inf) (Sprague-Dawley rat, male, plasma; intravenous, 5 mg/kg of parent drug): 105 ± 7.56 ng·h/mL
